Measured values from different studies.
Parts stem from different laboratories: compare values within a part only.

Series 1
Cell line: HH
Concentration: 2 µM
Time: 48 h
Relative to: untreated
| SMILES | viability [%] |
| --- | --- |
| c1cncc(CN2CCC(n3ncc4c(N5CCOCC5)nc(-c5ccc6[nH]ccc6c5)nc43)CC2)c1 | 40.1 |
| CCN(CC)CCCC(C)Nc1nc(C)cc(Nc2ccc3nc(C)cc(N)c3c2)n1 (centres unmarked) | 87.9 |
| COc1cc(C(=O)NC2CCN(C)CC2)ccc1Nc1ncc2c(n1)N(C1CCCC1)CC(F)(F)C(=O)N2C | 30.3 |
| COc1cccc(-n2c(=O)[nH]c3cc(Cl)n(-c4ccc(-c5cccc(OC)c5O)cc4)c3c2=O)c1 | 93.2 |
| Nc1cc(C(F)(F)F)c(-c2cc(N3CCOCC3)nc(N3CCOCC3)n2)cn1 | 19.2 |
| CC(C)n1nc(-c2ccc3oc(N)nc3c2)c2c(N)ncnc21 | 56.9 |
| Cc1[nH]nc2ccc(-c3cncc(OC[C@@H](N)Cc4ccccc4)c3)cc12 | 15.7 |
| O=C1N=C(NCc2cccs2)S/C1=C\c1ccc2ncccc2c1 | 95.2 |
| O=C1NC(=O)C(c2ccccc2[N+](=O)[O-])=C1Nc1ccc(O)c(Cl)c1 | 93.9 |
| Cc1ccc(S(=O)(=O)/C=C/C#N)cc1 | 93.4 |
| CNC(=O)c1c(F)cccc1Nc1nc(Nc2cc3c(ccn3C(=O)CN(C)C)cc2OC)nc2[nH]ccc12 | 87.3 |
| Nc1ncnc2c1c(-c1cnc3[nH]ccc3c1)nn2C1CCCC1 | 30.9 |
| CCOc1cc(N2CCC(O)CC2)ccc1Nc1ncc2c(n1)N(C)c1ccccc1C(=O)N2C | 70.2 |
| Cc1c(NC(=O)OC[C@@H]2COCCN2)cn2ncnc(Nc3ccc4c(cnn4Cc4cccc(F)c4)c3)c12 | 126 |
| O=C(NCCO)c1cccc(-c2cc(Nc3ccc(OC(F)(F)F)cc3)ncn2)c1 | 82 |
| O=C(c1cccc(Cl)c1F)N1CCN(Cc2cccc(Nc3nccs3)n2)CC1 | 44.4 |
| O=C(NC[C@H](O)CO)c1ccncc1Nc1ccc(I)cc1F | 72.2 |
| CCn1c2ccccc2c2cc(Nc3ccnc(NCCCN4CCOCC4)n3)ccc21 | 105 |
| Clc1ccc(C2(c3ccc(-c4cn[nH]c4)cc3)CCNCC2)cc1 | 29.3 |

Series 2
Target: 5-hydroxytryptamine receptor 5A (HTR5A, Homo sapiens, UniProt P47898)
Sequence of UniProt P47898 (whole entry, looked up): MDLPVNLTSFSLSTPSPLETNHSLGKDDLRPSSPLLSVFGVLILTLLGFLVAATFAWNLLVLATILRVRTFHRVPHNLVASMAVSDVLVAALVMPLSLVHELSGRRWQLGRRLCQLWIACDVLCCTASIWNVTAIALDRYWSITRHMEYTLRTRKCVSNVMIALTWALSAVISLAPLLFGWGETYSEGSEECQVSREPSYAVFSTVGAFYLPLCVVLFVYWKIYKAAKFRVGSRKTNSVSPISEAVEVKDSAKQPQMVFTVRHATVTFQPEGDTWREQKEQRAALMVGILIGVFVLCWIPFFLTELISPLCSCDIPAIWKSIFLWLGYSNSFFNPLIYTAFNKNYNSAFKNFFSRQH
Read-out: cell-free assay
Concentration: 10 µM
| Compound | inhibition [%] |
| --- | --- |
| CCOc1ccc(S(=O)(=O)Nc2ccc(Cl)cc2C#Cc2cnc(C(=O)O)cc2OC)c2ncccc12 | -24.6 |
| CN(C)[C@H]1CCN(c2cc(-c3ccccc3)nc3ccnn23)C1 | 5.42 |
| CN1CCN(C(=O)C(C)(C)c2ccc(C(=O)Nc3cn4cc(-c5cc(C(C)(C)C)cc(C(C)(C)C)c5)ccc4n3)cc2)CC1 | 83.2 |
| CCCOc1ccc([C@H]2[C@H](C(=O)O)[C@@H](c3ccc4c(c3)OCO4)CN2CC(=O)Nc2c(CC)cccc2CC)cc1 | -0.22 |
| Cc1c(NC(=O)c2cc(C(N)=O)nc3cc(F)ccc23)c(C(F)(F)F)nn1Cc1ccc(C#N)cc1 | -2.35 |
| CCOc1cc(N2C3COCC2CN(C(=O)[C@H]2C[C@H](O)CN2c2ccc(Cl)cc2)C3)ccc1Cl | 1.7 |
| c1ccc(C2CCN(c3cnc4c(N5CCOCC5)nccn34)CC2)cc1 | 19 |
| Cc1cc2c(-c3ccco3)cnc(N[C@H]3CCN(C)C[C@@H]3C(=O)NC3CCCCC3)c2[nH]c1=O | 10.1 |
| C[C@@]1(Cc2ccc(C#N)cc2)C(=O)N(c2cc(Cl)cc(Cl)c2)c2ncc(C(=O)NC3(c4nc(C5CCC5)no4)CC3)n21 | 2.14 |
| COCCOc1nc(-c2ccc(Cl)nc2)nc2c1CN(C(=O)c1ncn3ccccc13)CC2 | -7.27 |
| NC(=O)c1ccc2nc(-c3ccc(C4(N)CCC4)cc3)c(-c3ccccc3)n2n1 | 9.78 |
| CNC(=O)c1cc(C(=O)N[C@H]2[C@@H]3COC[C@@H]32)cc2c1O[C@H](CF)[C@H]2c1ccccc1 | 12.5 |
| CC(C)(C)OC(=O)N1CCCC1CNC1CCC(c2cc(F)ccc2F)(S(=O)(=O)c2ccc(Cl)cc2)CC1 (centres unmarked) | 35 |
| C[C@@H](NC(=O)Nc1cc2[nH]ncc2c(CO)n1)c1ccccc1 | 1.39 |
| COc1cc(C(=O)O)ncc1C#Cc1ccccc1NS(=O)(=O)c1cccc2c(N(C)C)ccnc12 | 12.2 |
| Cc1noc([C@H]2C[C@@H](c3ccc(C(F)(F)F)cc3)CN(C(=O)N3CCS(=O)(=O)C3)C2)n1 | -14.6 |
| CN1C(=O)[C@@H](N2CCc3c(nn(Cc4ccccc4)c3Br)C2=O)COc2ccccc21 | 38.2 |
| NS(=O)(=O)c1cc(NC(=O)Cc2ccccc2)ccc1Oc1cccc(Cl)c1 | 1.47 |
| O=C(NNS(=O)(=O)c1ccccc1F)c1cc(F)cc(-c2ccccn2)c1 | -9.77 |

Series 3
Target: Calcium/calmodulin-dependent protein kinase type II subunit alpha (CAMK2A, Homo sapiens, UniProt Q9UQM7)
Sequence of UniProt Q9UQM7 (whole entry, looked up): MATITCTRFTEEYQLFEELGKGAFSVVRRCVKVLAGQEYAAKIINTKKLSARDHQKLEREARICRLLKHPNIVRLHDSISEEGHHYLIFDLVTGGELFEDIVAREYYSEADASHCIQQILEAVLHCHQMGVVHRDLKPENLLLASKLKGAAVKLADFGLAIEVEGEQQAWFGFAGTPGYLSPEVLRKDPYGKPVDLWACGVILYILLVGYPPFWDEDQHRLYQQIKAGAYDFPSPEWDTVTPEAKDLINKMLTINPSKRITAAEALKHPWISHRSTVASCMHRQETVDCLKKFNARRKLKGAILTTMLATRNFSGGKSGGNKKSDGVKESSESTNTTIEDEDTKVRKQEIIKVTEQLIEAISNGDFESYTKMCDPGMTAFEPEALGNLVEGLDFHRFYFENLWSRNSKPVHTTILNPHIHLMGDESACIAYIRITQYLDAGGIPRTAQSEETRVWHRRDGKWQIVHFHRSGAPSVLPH
Read-out: enzyme activity
Mode: inhibitor
Concentration: 10 µM
| SMILES | inhibition |
| --- | --- |
| CC(OC(=O)NCC1(CC(=O)O)CCCCC1)OC(=O)C(C)C (centres unmarked) | 7% |
| CNc1ncnc2c1ncn2[C@@H]1O[C@H](CO)[C@@H](O)[C@H]1O | -58% |
| CCC[C@@]1(CCc2ccccc2)CC(O)=C([C@H](CC)c2cccc(NS(=O)(=O)c3ccc(C(F)(F)F)cn3)c2)C(=O)O1 | 7% |
| O=C(O)C1CSSC1 | 35% |
| CC(C)C[C@@H](N)C(=O)N[C@H]1C(=O)N[C@@H](CC(N)=O)C(=O)N[C@H]2C(=O)N[C@H]3C(=O)N[C@H](C(=O)N[C@H](C(=O)O)c4cc(O)cc(O)c4-c4cc3ccc4O)[C@H](O)c3ccc(c(Cl)c3)Oc3cc2cc(c3O[C@@H]2O[C@H](CO)[C@@H](O)[C@H](O)[C@H]2O[C@H]2C[C@](C)(N)[C@H](O)[C@H](C)O2)Oc2ccc(cc2Cl)[C@H]1O | 2% |
| Cc1ncc([N+](=O)[O-])n1C[C@@H](CN1CCOCC1)OP(=O)(O)O | -6% |
| O=C(O)c1ccc(O)c(O)c1O | -20% |
| COc1ccc(-c2oc3c(CC=C(C)C)c(O)cc(O)c3c(=O)c2O[C@@H]2O[C@@H](C)[C@H](O)[C@@H](O)[C@H]2O[C@@H]2O[C@H](CO)[C@@H](O)[C@H](O)[C@H]2O)cc1 | -19% |
| CC(C)CCC[C@@H](C)[C@H]1CC[C@H]2C3=CC=C4C[C@@H](O)CC[C@]4(C)[C@H]3CC[C@]12C | 30% |
| C=C(C)[C@@H](CC=C(C)C)C[C@@]12C[C@@H](CC=C(C)C)C(C)(C)[C@@](CC=C(C)C)(C(=O)C(=C(O)c3ccc(O)c(O)c3)C1=O)C2=O | -42% |
| O=c1c(O[C@@H]2O[C@H](CO)[C@@H](O)[C@H](O)[C@H]2O[C@@H]2OC[C@@H](O)[C@H](O)[C@H]2O)c(-c2ccc(O)cc2)oc2cc(O)cc(O)c12 | -47% |
| N[C@H](CO)Cc1cnc[nH]1 | -21% |

Series 4
Target: NUAK family SNF1-like kinase 2 (NUAK2, Homo sapiens, UniProt Q9H093)
Sequence of UniProt Q9H093 (whole entry, looked up): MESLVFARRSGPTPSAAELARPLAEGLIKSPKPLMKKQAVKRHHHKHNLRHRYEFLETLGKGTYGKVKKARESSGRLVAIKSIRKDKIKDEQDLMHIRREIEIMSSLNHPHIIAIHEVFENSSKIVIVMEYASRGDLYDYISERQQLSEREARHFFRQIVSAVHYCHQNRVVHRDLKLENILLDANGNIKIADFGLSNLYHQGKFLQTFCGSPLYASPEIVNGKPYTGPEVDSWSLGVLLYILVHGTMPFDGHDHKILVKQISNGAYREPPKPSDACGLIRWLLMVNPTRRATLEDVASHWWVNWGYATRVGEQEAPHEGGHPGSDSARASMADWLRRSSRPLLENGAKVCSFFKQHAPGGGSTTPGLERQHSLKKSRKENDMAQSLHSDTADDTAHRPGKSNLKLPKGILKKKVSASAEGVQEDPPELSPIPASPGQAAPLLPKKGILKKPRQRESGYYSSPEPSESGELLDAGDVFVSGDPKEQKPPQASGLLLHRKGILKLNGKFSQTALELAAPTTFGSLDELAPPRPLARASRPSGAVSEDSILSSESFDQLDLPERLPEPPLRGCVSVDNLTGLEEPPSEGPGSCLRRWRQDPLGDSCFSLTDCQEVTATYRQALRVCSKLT
Read-out: enzyme activity
Mode: inhibitor
Concentration: 0.5 µM
Relative to: control
| SMILES | remaining activity [%] |
| --- | --- |
| COc1ccc(S(=O)(=O)N(CCO)c2ccccc2CN(C)CC=Cc2ccc(Cl)cc2)cc1 | 113 |
| Nc1nc(Nc2ccc(S(N)(=O)=O)cc2)nn1C(=O)c1c(F)cccc1F | 34 |
| Cc1cncc2cccc(S(=O)(=O)N3CCCN(C(=O)CN)C[C@@H]3C)c12 | 125 |
| NC(=O)c1ccc(N(C(N)=O)c2c(F)cccc2F)nc1-c1ccc(F)cc1F | 98.7 |
| Nc1ncnc2c1cnn2-c1ccccc1 | 75.2 |
| O=C1Cc2c([nH]c3ccc([N+](=O)[O-])cc23)-c2ccccc2N1 | 68.6 |
| Nc1nccc(-c2c(-c3ccc(F)cc3)ncn2C2CCNCC2)n1 | 122 |
| Fc1ccc(-c2nc3n(c2-c2ccncc2)CCS3)cc1 | 135 |
| CC(C)(C)n1nc(Cc2cccc3ccccc23)c2c(N)ncnc21 | 82 |
| CC(=O)c1ccc(N2CCOCC2)cc1O | 104 |
| CC[n+]1c(/C=C/N(C)c2ccccc2)n(-c2ccccc2)c2ccc(-c3nc4ccccc4s3)cc21 | 93.3 |
| Cc1cc(Nc2nc(-c3ccccc3)nc3ccccc23)n[nH]1 | 71.1 |
| Oc1ccc(Nc2nc(-c3ccc(Cl)cc3)cs2)cc1 | 137 |
| Cc1ccc(NC2=CC(=O)c3sc(C)nc3C2=O)cc1 | 105 |
| CCCC(=O)Oc1ccc2[nH]c(C(=O)c3cc4ccccc4[nH]3)cc2c1 | 73.4 |
| CCc1[nH]c(-c2ccc(OC)cc2)nc1-c1ccncc1 | 129 |
| O=C1NC(=O)C(c2c[nH]c3ccccc23)=C1c1c[nH]c2ccccc12 | 86 |
| O=S(=O)(NCCNC/C=C/c1ccc(Br)cc1)c1cccc2cnccc12 | 78.1 |
| CC#CC(=O)Nc1cc2c(Nc3ccc(F)c(Cl)c3)ncnc2cn1 | 95.4 |
| CSc1nc(-c2ccnc(N[C@@H](C)c3ccccc3)c2)c(-c2ccc(F)cc2)[nH]1 (racemic) | 86.5 |
| N#CC(=C(N)Sc1ccc(N)cc1)c1ccccc1C(F)(F)F | 75 |

A few entries again (series 2):
| Compound | inhibition [%] |
| --- | --- |
| c1ccc(C2CCN(c3cnc4c(N5CCOCC5)nccn34)CC2)cc1 | 19 |
| CN(C)[C@H]1CCN(c2cc(-c3ccccc3)nc3ccnn23)C1 | 5.42 |
| CN1C(=O)[C@@H](N2CCc3c(nn(Cc4ccccc4)c3Br)C2=O)COc2ccccc21 | 38.2 |
| CNC(=O)c1cc(C(=O)N[C@H]2[C@@H]3COC[C@@H]32)cc2c1O[C@H](CF)[C@H]2c1ccccc1 | 12.5 |
| NS(=O)(=O)c1cc(NC(=O)Cc2ccccc2)ccc1Oc1cccc(Cl)c1 | 1.47 |
| C[C@@]1(Cc2ccc(C#N)cc2)C(=O)N(c2cc(Cl)cc(Cl)c2)c2ncc(C(=O)NC3(c4nc(C5CCC5)no4)CC3)n21 | 2.14 |
